Measured values from different studies.
Lines come from different studies, so protocols differ.
MTNR1B: Melatonin receptor type 1B (MTNR1B, Homo sapiens, UniProt P49286)
Sequence of UniProt P49286 (whole entry, looked up): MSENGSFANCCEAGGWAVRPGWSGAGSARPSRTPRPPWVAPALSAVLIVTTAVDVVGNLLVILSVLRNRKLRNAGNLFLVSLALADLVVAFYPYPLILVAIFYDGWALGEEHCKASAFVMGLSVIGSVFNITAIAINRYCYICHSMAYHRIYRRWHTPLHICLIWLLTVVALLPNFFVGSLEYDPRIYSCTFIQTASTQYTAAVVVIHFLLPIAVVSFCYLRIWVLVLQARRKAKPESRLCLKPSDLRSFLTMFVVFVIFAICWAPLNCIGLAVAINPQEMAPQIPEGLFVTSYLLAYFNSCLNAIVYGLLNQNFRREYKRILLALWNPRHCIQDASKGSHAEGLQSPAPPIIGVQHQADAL
MTNR1A: Melatonin receptor type 1A (MTNR1A, Homo sapiens, UniProt P48039)
Sequence of UniProt P48039 (whole entry, looked up): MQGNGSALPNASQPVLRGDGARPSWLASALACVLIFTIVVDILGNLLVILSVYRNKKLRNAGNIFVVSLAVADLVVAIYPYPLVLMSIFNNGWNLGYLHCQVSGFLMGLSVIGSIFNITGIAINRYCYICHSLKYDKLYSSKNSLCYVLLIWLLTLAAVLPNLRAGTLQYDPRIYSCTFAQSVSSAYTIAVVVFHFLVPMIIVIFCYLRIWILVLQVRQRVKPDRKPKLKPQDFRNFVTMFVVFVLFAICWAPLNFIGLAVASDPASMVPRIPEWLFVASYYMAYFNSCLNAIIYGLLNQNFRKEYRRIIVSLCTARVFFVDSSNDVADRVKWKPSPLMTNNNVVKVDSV
RARA: Retinoic acid receptor alpha (RARA, Homo sapiens, UniProt P10276)
Sequence of UniProt P10276 (whole entry, looked up): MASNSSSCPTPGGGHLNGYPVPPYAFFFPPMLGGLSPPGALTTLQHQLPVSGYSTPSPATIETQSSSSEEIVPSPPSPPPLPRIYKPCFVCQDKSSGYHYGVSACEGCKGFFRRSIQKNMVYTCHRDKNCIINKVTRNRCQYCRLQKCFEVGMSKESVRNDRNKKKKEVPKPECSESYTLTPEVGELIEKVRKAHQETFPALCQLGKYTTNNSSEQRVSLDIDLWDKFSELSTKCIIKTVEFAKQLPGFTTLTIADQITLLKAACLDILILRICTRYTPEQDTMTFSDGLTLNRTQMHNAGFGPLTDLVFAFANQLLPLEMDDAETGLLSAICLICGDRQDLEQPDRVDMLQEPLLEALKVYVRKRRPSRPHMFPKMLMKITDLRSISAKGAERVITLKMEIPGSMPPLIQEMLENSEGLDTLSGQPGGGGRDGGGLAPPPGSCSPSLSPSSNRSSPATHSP
HTR1F: 5-hydroxytryptamine receptor 1F (HTR1F, Homo sapiens, UniProt P30939)
Sequence of UniProt P30939 (whole entry, looked up): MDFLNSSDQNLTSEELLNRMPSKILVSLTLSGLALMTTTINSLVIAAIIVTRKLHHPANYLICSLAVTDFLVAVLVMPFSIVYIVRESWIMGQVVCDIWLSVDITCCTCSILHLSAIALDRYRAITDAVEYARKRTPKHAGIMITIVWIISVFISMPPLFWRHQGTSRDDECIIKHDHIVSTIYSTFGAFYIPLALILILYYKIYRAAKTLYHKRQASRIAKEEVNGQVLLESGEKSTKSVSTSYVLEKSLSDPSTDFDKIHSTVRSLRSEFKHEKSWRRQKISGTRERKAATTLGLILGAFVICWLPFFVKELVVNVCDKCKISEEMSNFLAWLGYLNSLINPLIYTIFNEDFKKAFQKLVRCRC
GPR84: G-protein coupled receptor 84 (GPR84, Homo sapiens, UniProt Q9NQS5)
Sequence of UniProt Q9NQS5 (whole entry, looked up): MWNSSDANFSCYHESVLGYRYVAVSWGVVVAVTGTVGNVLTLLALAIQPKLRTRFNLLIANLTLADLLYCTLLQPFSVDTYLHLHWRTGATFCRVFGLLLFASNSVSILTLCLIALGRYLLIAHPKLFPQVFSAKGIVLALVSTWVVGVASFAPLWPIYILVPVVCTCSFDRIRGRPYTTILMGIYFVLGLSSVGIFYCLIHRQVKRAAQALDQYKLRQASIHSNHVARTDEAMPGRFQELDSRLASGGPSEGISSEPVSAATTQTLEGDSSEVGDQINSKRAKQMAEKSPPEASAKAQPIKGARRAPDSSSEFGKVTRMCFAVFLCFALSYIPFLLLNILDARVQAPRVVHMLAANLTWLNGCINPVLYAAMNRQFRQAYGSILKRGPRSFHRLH
MC3R: Melanocortin receptor 3 (MC3R, Homo sapiens, UniProt P41968)
Sequence of UniProt P41968 (whole entry, looked up): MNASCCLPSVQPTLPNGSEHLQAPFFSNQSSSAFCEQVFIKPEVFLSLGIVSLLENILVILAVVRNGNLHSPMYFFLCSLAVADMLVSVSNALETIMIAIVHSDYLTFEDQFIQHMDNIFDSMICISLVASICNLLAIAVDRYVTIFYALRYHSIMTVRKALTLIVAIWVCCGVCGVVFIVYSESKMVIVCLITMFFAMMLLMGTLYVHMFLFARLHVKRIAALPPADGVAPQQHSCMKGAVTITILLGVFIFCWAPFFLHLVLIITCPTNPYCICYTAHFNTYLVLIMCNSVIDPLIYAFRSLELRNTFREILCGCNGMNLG
AVPR2: Vasopressin V2 receptor (AVPR2, Homo sapiens, UniProt P30518)
Sequence of UniProt P30518 (whole entry, looked up): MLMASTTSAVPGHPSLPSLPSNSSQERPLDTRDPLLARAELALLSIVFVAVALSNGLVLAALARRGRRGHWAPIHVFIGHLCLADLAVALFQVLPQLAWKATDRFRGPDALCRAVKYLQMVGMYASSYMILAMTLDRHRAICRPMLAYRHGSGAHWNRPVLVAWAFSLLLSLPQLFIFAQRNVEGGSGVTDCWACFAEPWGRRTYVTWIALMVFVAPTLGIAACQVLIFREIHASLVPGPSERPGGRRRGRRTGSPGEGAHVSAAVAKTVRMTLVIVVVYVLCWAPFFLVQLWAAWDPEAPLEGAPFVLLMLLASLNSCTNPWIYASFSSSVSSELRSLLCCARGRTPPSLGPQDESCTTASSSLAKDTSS
Sequence of UniProt P0DMS8 (whole entry, unmodified, looked up): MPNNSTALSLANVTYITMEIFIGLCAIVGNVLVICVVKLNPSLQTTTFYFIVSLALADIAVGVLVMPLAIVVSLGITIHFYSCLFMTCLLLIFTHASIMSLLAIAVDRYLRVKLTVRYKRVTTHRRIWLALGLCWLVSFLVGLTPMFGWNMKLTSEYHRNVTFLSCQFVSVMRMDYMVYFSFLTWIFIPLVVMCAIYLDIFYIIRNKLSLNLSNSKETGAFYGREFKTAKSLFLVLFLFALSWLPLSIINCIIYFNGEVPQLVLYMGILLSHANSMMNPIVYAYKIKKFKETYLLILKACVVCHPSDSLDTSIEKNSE
Sequence of UniProt Q9UKP6 (whole entry, looked up): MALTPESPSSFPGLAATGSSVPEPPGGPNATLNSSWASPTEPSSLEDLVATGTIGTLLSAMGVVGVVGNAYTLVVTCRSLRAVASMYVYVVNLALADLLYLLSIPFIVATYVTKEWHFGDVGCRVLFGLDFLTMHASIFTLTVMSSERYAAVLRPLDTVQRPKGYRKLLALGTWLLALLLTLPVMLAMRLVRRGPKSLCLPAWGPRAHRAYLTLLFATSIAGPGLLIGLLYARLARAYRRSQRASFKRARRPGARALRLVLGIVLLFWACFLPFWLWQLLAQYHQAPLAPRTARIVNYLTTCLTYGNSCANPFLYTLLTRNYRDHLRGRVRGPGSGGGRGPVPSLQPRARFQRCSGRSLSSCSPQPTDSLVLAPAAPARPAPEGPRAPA
Sequence of UniProt Q01959 (whole entry, looked up): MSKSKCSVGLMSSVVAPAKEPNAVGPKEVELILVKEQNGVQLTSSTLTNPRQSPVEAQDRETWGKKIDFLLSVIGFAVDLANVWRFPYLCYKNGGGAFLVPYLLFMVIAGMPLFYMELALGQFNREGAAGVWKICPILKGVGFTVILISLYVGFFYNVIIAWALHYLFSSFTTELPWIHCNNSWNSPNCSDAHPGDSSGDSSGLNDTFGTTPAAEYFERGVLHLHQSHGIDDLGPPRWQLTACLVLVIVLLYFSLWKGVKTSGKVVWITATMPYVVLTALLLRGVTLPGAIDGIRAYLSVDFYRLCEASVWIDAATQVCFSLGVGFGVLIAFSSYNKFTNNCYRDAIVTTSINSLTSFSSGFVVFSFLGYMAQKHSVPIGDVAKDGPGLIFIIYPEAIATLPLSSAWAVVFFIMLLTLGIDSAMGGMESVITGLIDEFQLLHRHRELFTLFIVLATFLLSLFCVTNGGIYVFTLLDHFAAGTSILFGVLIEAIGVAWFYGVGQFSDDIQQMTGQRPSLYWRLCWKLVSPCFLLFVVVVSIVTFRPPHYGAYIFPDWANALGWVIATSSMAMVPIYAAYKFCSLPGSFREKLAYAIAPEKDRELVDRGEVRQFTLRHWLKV
Sequence of UniProt P34972 (whole entry, looked up): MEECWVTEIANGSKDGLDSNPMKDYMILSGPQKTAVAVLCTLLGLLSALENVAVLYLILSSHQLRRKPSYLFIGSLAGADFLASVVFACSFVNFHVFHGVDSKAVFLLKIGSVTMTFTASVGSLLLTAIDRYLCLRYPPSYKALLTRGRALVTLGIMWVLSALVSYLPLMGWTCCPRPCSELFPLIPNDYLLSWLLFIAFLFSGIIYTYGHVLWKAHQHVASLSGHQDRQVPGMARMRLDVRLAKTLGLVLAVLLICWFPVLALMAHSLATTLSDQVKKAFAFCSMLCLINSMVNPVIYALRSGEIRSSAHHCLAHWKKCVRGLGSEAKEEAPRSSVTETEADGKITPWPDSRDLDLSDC
Sequence of UniProt Q16581 (whole entry, looked up): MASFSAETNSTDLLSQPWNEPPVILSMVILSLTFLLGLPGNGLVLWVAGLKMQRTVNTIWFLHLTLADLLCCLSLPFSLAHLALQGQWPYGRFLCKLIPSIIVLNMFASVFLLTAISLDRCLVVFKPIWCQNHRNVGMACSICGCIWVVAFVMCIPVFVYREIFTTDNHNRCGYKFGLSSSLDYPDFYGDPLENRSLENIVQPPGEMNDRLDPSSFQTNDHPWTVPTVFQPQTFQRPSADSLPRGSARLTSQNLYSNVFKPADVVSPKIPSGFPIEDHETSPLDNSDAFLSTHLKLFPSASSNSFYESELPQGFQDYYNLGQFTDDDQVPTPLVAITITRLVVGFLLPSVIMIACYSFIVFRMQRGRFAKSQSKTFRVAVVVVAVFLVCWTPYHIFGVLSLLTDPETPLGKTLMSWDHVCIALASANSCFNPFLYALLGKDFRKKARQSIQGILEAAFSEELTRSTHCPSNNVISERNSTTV

Structure (SMILES) | target | read-out | mode | method | notes | EC50
O=C(NCCc1cccc2ccccc12)C1CCC1 | MTNR1B | β-arrestin recruitment | agonist |  |  | 288 nM
Clc1ccc(CNc2cccc(-c3nnc[nH]3)c2)cc1 | MTNR1A | cAMP | agonist | luciferase |  | 3.47 nM
COc1ccc2[nH]cc(CCNC(C)=O)c2c1I | MTNR1B | GTPγS binding | agonist | radiometric | cell membranes | 10.5 nM
COc1cc(C=CC(=O)C=Cc2cc(OC)c(OC)c(OC)c2)cc(OC)c1OC | Sterol carrier protein 2 (Aedes aegypti, UniProt Q86PR3) | ligand displacement |  | fluorescence |  | 650 nM
CCc1ccc(C2=CC(C)(C)Sc3ccc(C#Cc4ccc(C(=O)O)cc4)cc32)cc1 | RARA | reporter gene | antagonist | luciferase |  | 0.18 nM
CC(C)C[C@H](NC(=O)[C@@H](N)[C@@H](C)O)C(=O)N[C@@H](CCC(N)=O)C(=O)N1CCC[C@H]1C(=O)N1CCC[C@H]1C(=O)N[C@@H](C)C(=O)N[C@@H](CO)C(=O)N[C@@H](CO)C(=O)N[C@@H](CCCNC(=N)N)C(=O)N[C@H](CCCNC(=N)N)C(=O)N[C@@H](CCCNC(=N)N)C(=O)N[C@@H](Cc1c[nH]cn1)C(=O)N[C@@H](Cc1ccccc1)C(=O)N[C@@H](Cc1c[nH]cn1)C(=O)N[C@@H](Cc1c[nH]cn1)C(=O)N[C@@H](C)C(=O)N[C@@H](CC(C)C)C(=O)N1CCC[C@H]1C(=O)N1CCC[C@H]1C(=O)N[C@@H](C)C(=O)N[C@@H](CCCNC(=N)N)C(=O)O | C3a anaphylatoxin chemotactic receptor (C3AR1, Homo sapiens, UniProt Q16581) | β-arrestin recruitment | agonist |  |  | 209 nM
CN1CCC(=C2c3ccccc3C=Cc3ccccc32)CC1 | HTR1F | G protein activation | agonist | BRET |  | 423 nM
CC(C)=CCNc1ncnc2c1ncn2[C@@H]1O[C@H](CO)[C@@H](O)[C@H]1O | Adenosine receptor A3 (ADORA3, Homo sapiens, UniProt P0DMS8, I253Q/V169F) | G protein activation | agonist |  |  | 1800 nM
CCCCCCCCN(C)c1cc(=O)[nH]c(=O)[nH]1 | GPR84 | cAMP | agonist |  |  | 38 nM
CN(C)c1ncnc2c1ncn2[C@@H]1O[C@H](CO)[C@@H](O)[C@H]1O | Adenosine receptor A3 (ADORA3, Homo sapiens, UniProt P0DMS8, V169L) | G protein activation | agonist |  |  | 2300 nM
CCc1ccc2scc(CCNC(C)=O)c2c1 | MTNR1B | β-arrestin recruitment | agonist |  |  | 12 nM
Cc1cc(NC(=O)NCCN2CCC(O)(Cc3ccccc3)CC2)c2ccccc2n1 | Urotensin-2 receptor (UTS2R, Homo sapiens, UniProt Q9UKP6) | G protein activation | agonist | BRET |  | 95.5 nM
COc1ccc2ncn(CCNC(C)=O)c2c1 | MTNR1B | cAMP | agonist | TR-FRET |  | 1120 nM
CC(=O)N[C@@H](C)c1cc(Cl)ccc1C1CCN(C(=O)[C@@H]2CN(C(C)(C)C)C[C@H]2c2ccc(F)cc2F)CC1 | MC3R | cAMP | agonist |  |  | > 1000 nM
O=c1cc(N2CCN(c3ccc(Cl)cc3)CC2)[nH]c(=O)[nH]1 | GPR84 | cAMP | agonist |  |  | 151 nM
CN1CCC(=C2c3ccccc3Sc3ccccc32)CC1 | HTR1F | G protein activation | agonist | BRET |  | 371 nM
Cn1c(=O)oc2c(NCc3ncnn3CC(F)F)cccc21 | MTNR1A | cAMP | agonist | luciferase |  | 5600 nM
CCCCC/C=C\C/C=C\C/C=C\Cc1ccccc1CCCC(=O)OC(CO)CO | Cannabinoid receptor 2 (CNR2, Homo sapiens, UniProt P34972) | cAMP | agonist |  |  | 643 nM
CC(=O)NCCc1c(Cc2ccccc2)[nH]c2ccccc12 | MTNR1B | GTPγS binding | agonist | radiometric | cell membranes | 19.1 nM
CN(C)CCC=C1c2ccccc2C=Cc2ccccc21 | HTR1F | G protein activation | agonist | BRET |  | 1880 nM
CCOc1c(Br)cc(C(=O)Nc2ccc(C(=O)O)cc2)cc1C(=O)c1ccc(C)cc1 | RARA | reporter gene | antagonist | luciferase |  | 2.8 nM
CC1=NN(/C(=N\c2ccc(C)c(C)c2)Nc2nnc(C)s2)C(c2ccc(C)cc2)S1 (centres unmarked) | AVPR2 | cAMP | positive allosteric modulator |  |  | > 50000 nM

Structure (SMILES) | target | read-out | mode | method | notes | EC50
CN1CCN(C2=Nc3cc(Cl)ccc3Nc3ccccc32)CC1 | HTR1F | G protein activation | agonist | BRET |  | 264 nM
CC1=NN(/C(=N\c2ccccc2)Nc2nnc(C)s2)C(c2ccc(C)cc2)S1 (centres unmarked) | AVPR2 | cAMP | positive allosteric modulator |  |  | > 50000 nM
CCOC(=O)[C@@]12C[C@@H]1[C@@H](n1cnc3c(NC4CC4)nc(C#Cc4ccc(Cl)s4)nc31)[C@H](O)[C@@H]2O | Sodium-dependent dopamine transporter (SLC6A3, Homo sapiens, UniProt Q01959) | ligand displacement |  | radioligand |  | 110 nM
COc1ccc(CNc2cccnc2)c(Br)c1 | MTNR1A | cAMP | agonist | luciferase |  | 47.9 nM
COc1ccc(CC2NCCc3c2[nH]c2ccc(C)cc32)c(Cl)c1OC (centres unmarked) | HTR1F | G protein activation | agonist | BRET |  | 640 nM
CCCC[C@H](NC(C)=O)C(=O)N[C@H]1CC(=O)NCCCC[C@@H](C(=O)N[C@@H](C(=O)N2CCC[C@@H]2C(N)=O)C(C)C)NC(=O)[C@H](Cc2c[nH]c3ccccc23)NC(=O)[C@H](CCCN=C(N)N)NC(=O)[C@@H](Cc2ccc3ccccc3c2)NC(=O)[C@@H]2CCCN2C1=O | MC3R | cAMP | agonist |  |  | > 1000 nM
CC1=NN(/C(=N\c2ccc(OC(F)(F)F)cc2)Nc2nnc(C)s2)C(c2ccc(C)cc2)S1 (centres unmarked) | AVPR2 | cAMP | positive allosteric modulator |  |  | 9200 nM
COC(=O)c1cccc(N(C)CC2CCCC2O)n1 (centres unmarked) | MTNR1A | cAMP | agonist | luciferase |  | 21.3 nM
CCN1CCC[C@H]1CNC(=O)c1c(O)c(Cl)cc(Cl)c1OC | HTR1F | G protein activation | agonist | BRET |  | 20.8 nM
CCOc1ccc(CNc2cccnc2C)cc1 | MTNR1A | cAMP | agonist | luciferase |  | 3620 nM
CC1=NN(/C(=N\c2ccncc2)Nc2nnc(C)s2)C(c2ccc(C)cc2)S1 (centres unmarked) | AVPR2 | cAMP | positive allosteric modulator |  |  | > 50000 nM
O=C1CC2(CCCC2)CC(=O)N1CCCCN1CCN(c2ncccn2)CC1 | HTR1F | G protein activation | agonist | BRET |  | 3430 nM
CC1=NN(/C(=N\c2ccc(F)cc2)Nc2nnc(C)s2)C(c2ccc(C)cc2)S1 (centres unmarked) | AVPR2 | cAMP | positive allosteric modulator |  |  | 40700 nM
O=c1cc(NCCc2c[nH]c3ccccc23)[nH]c(=O)[nH]1 | GPR84 | cAMP | agonist |  |  | 1390 nM
COC(=O)c1csc(CSc2nnc(C(C)(C)C)[nH]2)c1 | MTNR1A | cAMP | agonist | luciferase |  | 23.1 nM
CN1CCN(C2=Nc3ccccc3Cc3ccccc32)CC1 | HTR1F | G protein activation | agonist | BRET |  | 1080 nM
COc1cc2c(CCNC(C)=O)c[nH]c2cc1I | MTNR1B | β-arrestin recruitment | agonist |  |  | 5.25 nM
CC1CC1CC(=O)N(Cc1ccccc1)c1ccncc1 (centres unmarked) | MTNR1A | cAMP | agonist | luciferase |  | 89.2 nM
COc1cc(I)c2[nH]cc(CCNC(C)=O)c2c1 | MTNR1B | cAMP | agonist | TR-FRET |  | 110 nM
O=c1cc(NCCCCCCO)[nH]c(=O)[nH]1 | GPR84 | cAMP | agonist |  |  | ~10000 nM
COC(=O)c1sc(N(C)Cc2scnc2C)nc1Cl | MTNR1A | cAMP | agonist | luciferase |  | 40.4 nM
CC1=NN(/C(=N\c2cccnc2)Nc2nnc(C)s2)C(c2ccc(C)cc2)S1 (centres unmarked) | AVPR2 | cAMP | positive allosteric modulator |  |  | > 50000 nM

A few entries again:
Structure (SMILES) | target | read-out | mode | method | notes | EC50
CC(C)=CCNc1ncnc2c1ncn2[C@@H]1O[C@H](CO)[C@@H](O)[C@H]1O | Adenosine receptor A3 (ADORA3, Homo sapiens, UniProt P0DMS8, I253Q/V169F) | G protein activation | agonist |  |  | 1800 nM
O=C1CC2(CCCC2)CC(=O)N1CCCCN1CCN(c2ncccn2)CC1 | HTR1F | G protein activation | agonist | BRET |  | 3430 nM
CC1=NN(/C(=N\c2ccc(C)c(C)c2)Nc2nnc(C)s2)C(c2ccc(C)cc2)S1 (centres unmarked) | AVPR2 | cAMP | positive allosteric modulator |  |  | > 50000 nM
